Assay results from different studies.
± marks the error that the study gave.
Organism: Trypanosoma cruzi

Structure (SMILES)	test	test system	conditions	how to read	quantity	result
Cc1ncnc2c1c(C(F)(F)F)cn2[C@@H]1O[C@H](CO)[C@@H](O)[C@H]1O	CPRG readout	MRC-5 SV2, Tulahuen CL2 β-galactosidase	7 days, intracellular amastigotes	–	EC50	5.06 µM
CCCC[C@@H](O)C[C@@H](C)C[C@H](NC(=O)[C@@H]1C[C@H](C)CN1C(=O)/C=C/[C@@H](C)CC)C(=O)N[C@H](C(=O)NC(C)(C)C(=O)N[C@@H](CC(C)C)C(=O)N[C@@H](CC(C)C)C(=O)NC(C)(C)C(=O)NC(C)(C)C(=O)NCCC(=O)N[C@@H](C)CNC)[C@H](O)C(C)C	amastigote replication, high-content imaging	C2C12, CA-I/72	72 h	–	EC50	0.0036 ± 0.0012 µM
C=C1C(=O)O[C@@H]2[C@H]1CC[C@H](C)[C@@]1(O[Si](C)(C)C)C=CC(=O)[C@@]21C	–	epimastigote	–	baseline: CC50 splenocytes over IC50 epimastigotes	selectivity index	0.3
CC(C)OC(=O)Nc1cnc2nc(-c3cc(NC(=O)c4ccco4)ccc3Cl)[nH]c2c1	–	epimastigotes	0.2% DMSO	–	EC20	1.5 µM
C=C1C(=O)OC2CC(C)C3C=CC(=O)C3(C)C(O[Si](C)(C)C(C)C)C12 (centres unmarked)	–	epimastigote	–	baseline: CC50 splenocytes over IC50 epimastigotes	selectivity index	2.2
Oc1ccccc1/C=C/c1ccc2ccccc2n1	–	Tulahuen	–	baseline: U-937 LC50 over amastigote EC50	selectivity index	1.6
C=C1C(=O)O[C@@H]2C[C@H](C)[C@@H]3C[C@H](OC(C)=O)[C@H](OC(C)=O)[C@@]3(C)C[C@H]12	–	epimastigote	–	baseline: CC50 splenocytes over IC50 epimastigotes	selectivity index	26
CCC(=O)C[C@@H](O)C[C@@H](C)C[C@H](NC(=O)[C@@H]1C[C@H](C)CN1C(=O)/C=C/[C@@H](C)CC)C(=O)N[C@H](C(=O)NC(C)(C)C(=O)N[C@@H](CC(C)C)C(=O)N[C@@H](CC(C)C)C(=O)NC(C)(C)C(=O)NC(C)(C)C(=O)NCCC(=O)N[C@@H](C)CNC)[C@H](O)C(C)C	amastigote replication, high-content imaging	C2C12, CA-I/72	72 h	–	EC50	0.012 ± 0.0014 µM
C=C1C(=O)O[C@@H]2C[C@H](C)[C@@H]3C[C@H](O[Si](c4ccccc4)(c4ccccc4)C(C)(C)C)[C@H](O)[C@@]3(C)C[C@H]12	–	epimastigote	–	baseline: CC50 splenocytes over IC50 epimastigotes	selectivity index	3
N=C(N)NCCC[C@H](NC(=O)[C@H](CCCNC(=N)N)NC(=O)[C@H](CCCNC(=N)N)NC(=O)[C@H](CCC(N)=O)NC(=O)[C@H](CCCNC(=N)N)NC(=O)[C@H](CCCNC(=N)N)NC(=O)[C@H](CCCCN)NC(=O)[C@H](CCCCN)NC(=O)[C@H](CCCNC(=N)N)NC(=O)CNC(=O)[C@H](Cc1ccc(O)cc1)NC(=O)CNC(=O)CNC(=O)[C@H](CCCCN)NC(=O)[C@H](CCCNC(=N)N)NC(=O)[C@H](CCC(N)=O)NC(=O)[C@H](CS)NC(=O)[C@H](CCC(N)=O)NC(=O)CNC(=O)[C@H](CC(N)=O)NC(=O)[C@@H](N)CCCNC(=N)N)C(N)=O	viability, WST-1	Y strain, trypomastigotes	24 h	–	IC50	~20 µM
Cc1nc(C)c(C(=O)Nc2ccc(F)c(-c3nc4ncc(-c5ccccn5)cn4n3)c2)o1	–	PSMB4 F24L overexpression, epimastigotes	–	baseline: PSMB4 F24L over wild type	potency shift	> 10 fold
CCCC[C@@H](O)C[C@@H](C)C[C@H](NC(=O)[C@@H]1C[C@H](C)CN1C(=O)/C=C/[C@@H](C)CC)C(=O)N[C@H](C(=O)NC(C)(C)C(=O)N[C@@H](CC(C)C)C(=O)N[C@@H](CC(C)C)C(=O)NC(C)(C)C(=O)NC(C)(C)C(=O)NCCC(=O)N[C@@H](C)CN(C)C)[C@H](O)C(C)C	amastigote replication, high-content imaging	C2C12, CA-I/72	72 h	–	EC50	0.0028 ± 0.0014 µM
N=C(N)NCCC[C@H](NC(=O)[C@H](CCCNC(=N)N)NC(=O)[C@H](CCCNC(=N)N)NC(=O)[C@H](CCC(N)=O)NC(=O)[C@H](CCCNC(=N)N)NC(=O)[C@H](CCCNC(=N)N)NC(=O)[C@H](CCCCN)NC(=O)[C@H](CCCCN)NC(=O)[C@H](CCCNC(=N)N)NC(=O)CNC(=O)[C@H](Cc1ccc(O)cc1)NC(=O)CNC(=O)CNC(=O)[C@@H]1CCCCNC(=O)CCC(=O)N[C@@H](CCCNC(=N)N)C(=O)N[C@@H](CC(N)=O)C(=O)NCC(=O)N[C@@H](CCC(N)=O)C(=O)N[C@@H](CS)C(=O)N[C@@H](CCC(N)=O)C(=O)N[C@@H](CCCNC(=N)N)C(=O)N[C@@H](CCCCN)C(=O)N1)C(N)=O	–	H1, BALB/c mice, infected	ip, 1.5 mg/kg/day, day 7	baseline: vehicle	reduction of parasitemia	85%
Cc1nc([N+](=O)[O-])cn1CC(O)CF (centres unmarked)	parasite growth	–	24 h, trypomastigote	–	IC50	1150 µM

Some of these lines once more:
Structure (SMILES)	test	test system	conditions	how to read	quantity	result
CC(C)OC(=O)Nc1cnc2nc(-c3cc(NC(=O)c4ccco4)ccc3Cl)[nH]c2c1	–	epimastigotes	0.2% DMSO	–	EC20	1.5 µM
C=C1C(=O)OC2CC(C)C3C=CC(=O)C3(C)C(O[Si](C)(C)C(C)C)C12 (centres unmarked)	–	epimastigote	–	baseline: CC50 splenocytes over IC50 epimastigotes	selectivity index	2.2
